Published values gathered from unrelated publications.
Lines come from different studies, so protocols differ. ± gives the spread as reported.

For `C[C@@H](O)[C@H](NC(=O)[C@H](CCCCN)NC(=O)COCCN)C(=O)N[C@@H](CCCNC(=N)N)C(=O)NC(C)(C)C(=O)N[C@@H](CCCNC(=N)N)C(=O)NC(C)(C)C(=O)N[C@H](C(=O)N[C@@H](CO)C(=O)N[C@@H](Cc1c[nH]cn1)C(=O)N[C@@H](Cc1ccc(O)cc1)C(=O)NCC(=O)O)[C@@H](C)O`, the lymphocytes was 20 to 40% (C57BL/6 mouse, blood; intravenous, 50 mg/kg, 10 h; relative to: leukocytes).
With `CC(C)C[C@H](NC(=O)[C@H](CCCCN)NC(=O)[C@H](C)NC(=O)[C@@H]1CCCN1C(=O)[C@@H]1CCCN1C(=O)[C@H](CCCCN)NC(=O)[C@H](CCCCN)NC(=O)[C@H](CO)NC(=O)[C@H](CCC(=O)O)NC(=O)[C@H](CCCCN)NC(=O)[C@H](CCCNC(=N)N)NC(=O)[C@H](CCC(N)=O)NC(=O)[C@H](CCC(N)=O)NC(=O)[C@@H](NC(=O)[C@H](CCCNC(=N)N)NC(=O)[C@H](CCC(N)=O)NC(=O)[C@H](Cc1cnc[nH]1)NC(=O)[C@H](CCC(=O)O)NC(=O)[C@@H]1CCCN1C(=O)[C@H](CO)NC(=O)[C@H](CC(C)C)NC(=O)[C@H](Cc1ccccc1)NC(=O)[C@H](CO)NC(=O)[C@H](CO)NC(=O)CN)C(C)C)C(=O)N[C@@H](CCC(N)=O)C(=O)N1CCC[C@H]1C(=O)N[C@@H](CCCNC(=N)N)C(=O)O` the clearance was 1.7 ± 0.9 mL/min/kg (ELISA; healthy humans, both sexes, plasma; intravenous infusion, 4 µg/kg/h, 210 min).
`COc1ccc(C)cc1NC(=O)OC1CC2CCCC(C1)N2Cc1ccc(CC[18F])cc1` (centres unmarked) has a tracer uptake of 4.76 %ID/g (mouse, bone; 30 min, tumour-bearing).
For `CC(C)C[C@H](NC(=O)[C@H](CCCCN)NC(=O)[C@H](CCC(=O)O)NC(=O)[C@H](C)NC(=O)[C@@H](NC(=O)[C@H](CCCCN)NC(=O)[C@H](CC(=O)O)NC(=O)[C@H](Cc1ccc(O)cc1)NC(=O)[C@H](Cc1ccccc1)NC(=O)[C@H](C)NC(=O)[C@H](CCCCN)NC(=O)[C@H](CC(C)C)NC(=O)[C@H](Cc1c[nH]c2ccccc12)NC(=O)[C@@H](N)CC(=O)O)C(C)C)C(=O)N[C@@H](CCCCN)C(=O)N[C@@H](CCC(=O)O)C(=O)N[C@@H](C)C(=O)N[C@@H](Cc1ccccc1)C(=O)N1CCC[C@H]1C(=O)N[C@@H](CC(=O)O)C(=O)N[C@@H](Cc1c[nH]c2ccccc12)C(=O)N[C@@H](C)C(=O)N[C@@H](CCCCN)C(=O)N[C@@H](C)C(=O)N[C@@H](C)C(=O)N[C@@H](Cc1ccc(O)cc1)C(=O)N[C@@H](CC(=O)O)C(=O)N[C@@H](CCCCN)C(=O)N[C@@H](C)C(=O)N[C@@H](C)C(=O)N[C@@H](CCC(=O)O)C(=O)N[C@@H](CCCCN)C(=O)N[C@@H](C)C(=O)N[C@@H](CCCCN)C(=O)N[C@@H](CCC(=O)O)C(=O)N[C@@H](C)C(=O)N[C@@H](C)C(=O)O`, the AUC(0-last) was 527 µg·h/mL (cynomolgus monkey male, plasma; intravenous infusion, 8 mg/kg every other day, day 27).
`CC[C@H](C)C(=O)N1CCC(NC(=O)Nc2ccc(OC(F)(F)F)c(F)c2)CC1`: “subjects with limb injury TEAE” 0% (healthy volunteers; oral, 16 mg single dose).
With `CCCCCCCC/C=C\CCCCCCCCOP(O)(O)=S.N` the CL/F was 10.9 mL/min/kg (mouse, male, nonirradiated; subcutaneous, single dose).
`CC(C)[C@H](NC(=O)CNC(=O)[C@H](CCC(N)=O)NC(=O)[C@H](C)N)C(=O)O` — result for “subjects with adverse events”: 0% (severe intensity; human; 10 mg/kg, 3 days, thrice daily dosing).
The tissue uptake of `CN[C@](C)(C[18F])C(=O)O` is reported as 5.7 ± 1.8 %ID/g (SCID mouse DU-145 xenograft, spleen; 120 min, post injection).
`COc1cc(-c2cncc(-c3ccc(N4CCNCC4)cc3)c2C)cc(O[11CH3])c1F` — result for “time to peak brain SUV”: ≤ 1 min (dynamic PET; Sprague-Dawley rats male, whole brain; intravenous).
`C[S]1CC[S]2CC[P](CO)(CO)[99Tc+]12.[C-]#[O+].[C-]#[O+].[C-]#[O+]` — result for “uptake in large intestine”: 16.7 %ID (CF-1 mouse; intravenous, 1 h).
`COc1cc(C(=O)NCCOCCOCCOCCNC(=O)c2ccc([18F])nc2)ccc1NC(=O)C1NC(CC(C)(C)C)C(C#N)(c2ccc(Cl)cc2F)C1c1cccc(Cl)c1F` (centres unmarked) gave a tumour-to-tissue ratio of 1.09 ± 0.42 (athymic male mice, HepG2 xenograft; 2 h; relative to: tumour over liver).
The Tmax of `CCc1c2c(nc3ccc(OC4OC(C(=O)O)C(O)C(O)C4O)cc13)-c1cc3c(c(=O)n1C2)COC(=O)C3(O)CC` (centres unmarked) is reported as 6.58 h (human patients, plasma; intravenous, 56 mg/m^2 of parent drug).
With `C=Cc1cc(O)cc2nc(-c3ccc(O)c([76Br])c3)oc12` the tissue uptake was 0.33 ± 0.22 %ID/g (female C57BL/6 mouse, uterus; 1 h, high dose, together with: estradiol 20 µg blocking).
For `CC[C@H](C)[C@H](NC(=O)[C@H](CCCNC(=N)N)NC(=O)[C@H](CCCCN)NC(=O)[C@H](CC(C)C)NC(=O)[C@H](CC(C)C)NC(=O)CNC(=O)[C@H](Cc1c[nH]cn1)NC(=O)[C@@H](NC(=O)[C@@H](N)C(C)C)[C@@H](C)CC)C(=O)N[C@@H](CCCCN)C(=O)N[C@H](C(=O)N[C@@H](CC(C)C)C(=O)N[C@@H](CC(C)C)C(N)=O)[C@@H](C)O`, the HD10 was 4 µM (haemolysis; human red blood cells; 1 h).
For `CSCC[C@H](NC(=O)CNC(=O)[C@H](CC(=O)O)NC(=O)[C@@H](NC(=O)[C@@H](NC(=O)[C@@H](NC(=O)CNC(=O)[C@H](CCC(N)=O)NC(=O)[C@H](CCSC)NC(=O)[C@H](CC(=O)O)NC(=O)[C@H](C)NC(=O)[C@H](C)NC(=O)[C@@H](NC(=O)[C@H](CO)NC(=O)[C@@H](N)CC(C)C)[C@@H](C)O)C(C)C)C(C)C)[C@@H](C)O)C(=O)N[C@@H](C)C(=O)N[C@@H](CO)C(=O)NCC(=O)N[C@@H](CC(C)C)C(=O)N[C@@H](CC(=O)O)C(=O)N[C@@H](CCCCN)C(=O)N[C@@H](CC(=O)O)C(=O)N[C@@H](Cc1ccc(O)cc1)C(=O)N[C@@H](CC(C)C)C(=O)N[C@@H](CCCCN)C(=O)N1CCC[C@H]1C(=O)N[C@@H](CC(=O)O)C(=O)N[C@@H](CC(=O)O)C(=O)O`, the half-life was 0.09 h (human, serum; intravenous, patients, infusion).
`CN(C)C(CNC(=O)Nc1cc(C(F)(F)F)ccc1N1CCOCC1)c1ccncc1` (centres unmarked): “serum direct bilirubin” 0 mg/dL (mouse, serum; intraperitoneal, 180 mg/kg single dose).
`CN(C)c1ccc(C(=O)NCCCCN2CCN(c3ccccc3O[11CH3])CC2)cc1` gave an uptake ratio of 1.16 (male Sprague Dawley rat, blood; iv, dose not given, together with: cyclosporin A pretreatment; relative to: cyclosporin A over untreated).
Under “standard entropy of aggregation”, `CCCCCCCCCCCCC(=O)O.O=C1CCCC2C3CCCN4CCCC(CN12)C34` (centres unmarked) is recorded as 108 J/(mol·K) (electrical conductivity; water; 298.15 K).
`CC[C@H](C)[C@H](NC(=O)[C@H](CCCCN)NC(=O)CNC(=O)[C@H](CC(C)C)NC(=O)[C@@H](NC(=O)[C@H](C)NC(=O)[C@H](CCCCN)NC(=O)CNC(=O)[C@H](C)NC(=O)CNC(=O)[C@H](CCCCN)NC(=O)[C@H](CCSC)NC(=O)[C@H](CCCCN)NC(=O)[C@@H](NC(=O)[C@H](Cc1c[nH]c2ccccc12)NC(=O)[C@H](CC(C)C)NC(=O)[C@H](CCC(N)=O)NC(=O)[C@H](CCCCN)NC(=O)[C@H](CC(C)C)NC(=O)[C@@H](N)CC(C)C)[C@@H](C)O)C(C)C)C(=O)N[C@@H](CCCCN)C(=O)NCC(=O)N[C@@H](CC(C)C)C(=O)N[C@@H](CC(C)C)C(=O)O` gave a Stern-Volmer constant of 1.23 ± 0.01 M⁻¹ (acrylamide quenching; DOPC:DOPG 3:1 vesicles; 2 µM, 250 µM total lipid, together with: acrylamide).
`CC(=CCC(O)C(C)=Cc1csc(C)n1)CC=CC(C)C(O)C(C)C(=O)C(C)(C)C(O)CC(=O)O` (centres unmarked) gave a half-life of 31 ± 16 h (human, plasma; intravenous infusion, 36 mg/m2 KOS-1584, 3 h infusion, cycle 1).
With `C(#Cc1cncc(OC[C@@H]2CCN2)c1)c1ccccc1` the AUC was 7.05 µg·h/mL (Sprague-Dawley rat, plasma; oral, 75 mg/kg).
The initial velocity of `CC(=O)NCC(=O)N[C@@H](C)C(=O)N[C@@H](CCCCNP(=O)(O)O)C(=O)NCC(=O)NCC(N)=O` is reported as 2.48e-09 M/s (non-enzymatic hydrolysis; 100 µM, pH 7.8, no enzyme).
For `CC(CCC(=O)NCC(=O)O)C1CCC2C3C(O)CC4CC(OC5OC(C(=O)O)C(O)C(O)C5O)CCC4(C)C3CCC12C` (centres unmarked), “glucuronide to parent ratio” read 0.118 (human, T/C genotype, plasma; dose not given, geometric mean, sex-adjusted).
With `C=C(C)C12OC3(c4ccccc4)OC1C1C4OC4(CO)C(O)C4(O)C(=O)C(C)=CC4C1(O3)C(C)C2OC(=O)c1ccccc1` (centres unmarked) the oral bioavailability was 2.21% (ICR mice, plasma; oral, 1 mg/kg).
The tumour-to-kidney ratio of `CSCC[C@H](NC(=O)[C@H](Cc1c[nH]c2ccccc12)NC(=O)CNC(=O)[C@H](Cc1ccc(O)cc1)NC(=O)[C@H](C)NC(=O)[C@H](CCC(=O)O)NC(=O)[C@H](Cc1c[nH]cn1)NC(=O)[C@H](Cc1c[nH]cn1)NC(=O)[C@H](Cc1c[nH]cn1)NC(=O)[C@H](Cc1c[nH]cn1)NC(=O)[C@H](Cc1c[nH]cn1)NC(=O)[C@H](Cc1c[nH]cn1)NC(=O)CN1CCN(CC(=O)O)CCN(CC(=O)O)CCN(CC(=O)O)CC1)C(=O)N[C@@H](CC(=O)O)C(=O)N[C@@H](Cc1ccccc1)C(N)=O` is reported as 0.18 (MF1 nude mouse, male, CA20948 xenograft; intravenous, 0.2 µg, 4 h, 111In-labelled; relative to: tumour over kidney).
Under “acetonitrile share for dissolution”, `CC[C@H](C)[C@H](NC(=O)[C@@H](Cc1ccccc1)NC)C(=O)N[C@@H](CO)C(=O)N[C@H](CCCNC(=N)N)C(=O)N[C@@H](C(=O)N[C@H](C(=O)N[C@@H](CO)C(=O)N[C@H]1C(=O)N[C@@H](C)C(=O)N[C@@H](C2CCCCC2)C(=O)N[C@@H]([C@@H](C)CC)C(=O)O[C@H]1C)[C@@H](C)CC)[C@@H](C)CC` is recorded as ~40% (acetonitrile-water; TFA salt).
`CC[C@H](C)[C@H](NC(=O)[C@H](Cc1ccccc1)NC(=O)[C@H](CCC(N)=O)NC(=O)[C@H](CCSC)NC(=O)[C@@H](NC(=O)[C@H](CCC(N)=O)NC(=O)[C@H](CCCCN)NC(=O)[C@H](Cc1ccc(O)cc1)NC(=O)[C@H](Cc1ccccc1)NC(=O)[C@H](CCCCN)NC(=O)[C@H](CCCCN)NC(=O)[C@@H](NC(=O)[C@H](Cc1ccccc1)NC(=O)[C@@H]1CCCN1C(=O)[C@H](Cc1c[nH]c2ccccc12)NC(=O)CNC(=O)[C@H](Cc1ccccc1)NC(=O)[C@H](CCCCN)NC(=O)[C@H](C)NC(=O)[C@@H](NC(=O)[C@H](CC(C)C)NC(=O)[C@H](CCCCN)NC(=O)[C@H](C)NC(=O)[C@H](CCCNC(=N)N)NC(=O)[C@H](C)NC(=O)CNC(=O)[C@@H](N)CCSC)C(C)C)[C@@H](C)CC)[C@@H](C)CC)C(=O)NCC(=O)N[C@@H](CCC(N)=O)C(=O)NCC(=O)N[C@@H](Cc1c[nH]c2ccccc12)C(=O)N[C@H](C(=O)N[C@H](C(=O)N[C@@H](CC(=O)O)C(=O)N[C@@H](CCC(N)=O)C(=O)N[C@H](C(=O)N[C@@H](CCC(=O)O)C(=O)N[C@@H](CCCCN)C(=O)N[C@@H](Cc1c[nH]c2ccccc12)C(=O)N[C@@H](CC(C)C)C(=O)N[C@@H](CCCCN)C(=O)N[C@@H](CCCNC(=N)N)C(=O)N[C@@H](Cc1c[nH]cn1)C(=O)O)[C@@H](C)CC)[C@@H](C)CC)[C@@H](C)O` has a Tm of 44.6 ± 0.3 °C (thermal unfolding, far-UV CD; 10 mM sodium phosphate; 5-20 µM, pH 7.2).
For `[11CH3]n1c(=O)n(CCCO)c(=O)c2c1nc(Oc1cccc(OC(F)(F)F)c1)n2Cc1ccc(Cl)cc1`, the maximum SUV was ~1.1 (PET; cynomolgus monkey, male, whole brain).
`N=C(N)NCc1ccc(C(=O)NCCCC[C@H](NC(=O)N[C@@H](CCC(=O)O)C(=O)O)C(=O)O)cc1[131I]` has a tissue uptake of 0.62 ± 0.32 %ID/g (SCID mouse, PC-3 xenografts, lungs; 4 h).

For quick reference, copied from above:
With `C(#Cc1cncc(OC[C@@H]2CCN2)c1)c1ccccc1` the AUC was 7.05 µg·h/mL (Sprague-Dawley rat, plasma; oral, 75 mg/kg).
The initial velocity of `CC(=O)NCC(=O)N[C@@H](C)C(=O)N[C@@H](CCCCNP(=O)(O)O)C(=O)NCC(=O)NCC(N)=O` is reported as 2.48e-09 M/s (non-enzymatic hydrolysis; 100 µM, pH 7.8, no enzyme).
For `CC(CCC(=O)NCC(=O)O)C1CCC2C3C(O)CC4CC(OC5OC(C(=O)O)C(O)C(O)C5O)CCC4(C)C3CCC12C` (centres unmarked), “glucuronide to parent ratio” read 0.118 (human, T/C genotype, plasma; dose not given, geometric mean, sex-adjusted).
With `C=C(C)C12OC3(c4ccccc4)OC1C1C4OC4(CO)C(O)C4(O)C(=O)C(C)=CC4C1(O3)C(C)C2OC(=O)c1ccccc1` (centres unmarked) the oral bioavailability was 2.21% (ICR mice, plasma; oral, 1 mg/kg).
